Measurements of several laboratories.
Lines come from different studies, so protocols differ. ± marks the error that the study gave.
GNRHR: Gonadotropin-releasing hormone receptor (GNRHR, Homo sapiens, UniProt P30968)
Chain of UniProt P30968 (whole entry, looked up): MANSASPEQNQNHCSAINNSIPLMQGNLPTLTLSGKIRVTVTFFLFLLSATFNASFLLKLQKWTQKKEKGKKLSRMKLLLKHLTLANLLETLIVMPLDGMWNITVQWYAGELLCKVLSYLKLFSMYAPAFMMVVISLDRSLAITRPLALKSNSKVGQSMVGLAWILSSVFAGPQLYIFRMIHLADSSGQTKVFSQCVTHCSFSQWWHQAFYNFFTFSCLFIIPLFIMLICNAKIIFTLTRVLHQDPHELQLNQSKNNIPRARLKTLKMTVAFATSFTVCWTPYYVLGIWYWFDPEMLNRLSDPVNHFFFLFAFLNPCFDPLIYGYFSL
C3AR1: C3a anaphylatoxin chemotactic receptor (C3AR1, Homo sapiens, UniProt Q16581)
Chain of UniProt Q16581 (whole entry, looked up): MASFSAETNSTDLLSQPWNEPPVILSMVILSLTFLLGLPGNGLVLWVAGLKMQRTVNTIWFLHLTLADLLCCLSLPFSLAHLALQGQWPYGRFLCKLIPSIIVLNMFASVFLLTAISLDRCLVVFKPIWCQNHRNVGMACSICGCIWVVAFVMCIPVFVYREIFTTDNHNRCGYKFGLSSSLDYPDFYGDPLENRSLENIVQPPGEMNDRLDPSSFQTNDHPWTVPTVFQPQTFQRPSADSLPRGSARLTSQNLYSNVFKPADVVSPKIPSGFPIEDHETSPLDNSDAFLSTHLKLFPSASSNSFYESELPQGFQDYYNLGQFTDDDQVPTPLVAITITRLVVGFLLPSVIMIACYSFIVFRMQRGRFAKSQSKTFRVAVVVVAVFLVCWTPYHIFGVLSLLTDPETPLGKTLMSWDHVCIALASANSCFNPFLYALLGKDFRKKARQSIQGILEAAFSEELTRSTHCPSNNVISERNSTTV
CNR2: Cannabinoid receptor 2 (CNR2, Homo sapiens, UniProt P34972)
Chain of UniProt P34972 (whole entry, looked up): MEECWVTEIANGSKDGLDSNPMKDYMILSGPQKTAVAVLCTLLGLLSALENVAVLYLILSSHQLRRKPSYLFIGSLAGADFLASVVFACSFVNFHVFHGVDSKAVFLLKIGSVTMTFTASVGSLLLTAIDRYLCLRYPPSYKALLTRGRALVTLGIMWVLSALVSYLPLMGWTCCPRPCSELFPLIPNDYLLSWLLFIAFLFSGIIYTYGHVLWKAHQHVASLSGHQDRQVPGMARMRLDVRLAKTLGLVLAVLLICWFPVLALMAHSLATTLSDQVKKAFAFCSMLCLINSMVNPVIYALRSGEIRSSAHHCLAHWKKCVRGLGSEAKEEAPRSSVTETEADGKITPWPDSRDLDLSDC
Chain of UniProt Q9NSD7 (whole entry, unmodified, looked up): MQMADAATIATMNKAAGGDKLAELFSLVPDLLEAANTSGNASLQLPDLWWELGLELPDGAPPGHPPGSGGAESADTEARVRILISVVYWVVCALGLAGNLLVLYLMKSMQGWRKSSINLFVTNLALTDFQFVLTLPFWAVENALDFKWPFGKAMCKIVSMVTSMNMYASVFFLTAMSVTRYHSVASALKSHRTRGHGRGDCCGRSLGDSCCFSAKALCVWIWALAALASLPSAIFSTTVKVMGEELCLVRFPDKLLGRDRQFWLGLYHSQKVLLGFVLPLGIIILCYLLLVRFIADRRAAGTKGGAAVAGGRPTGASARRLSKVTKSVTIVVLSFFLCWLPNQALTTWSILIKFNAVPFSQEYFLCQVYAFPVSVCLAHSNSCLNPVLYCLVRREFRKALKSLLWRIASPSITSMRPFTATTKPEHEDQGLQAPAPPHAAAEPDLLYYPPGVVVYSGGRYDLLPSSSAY
Chain of UniProt Q92847 (whole entry, unmodified, looked up): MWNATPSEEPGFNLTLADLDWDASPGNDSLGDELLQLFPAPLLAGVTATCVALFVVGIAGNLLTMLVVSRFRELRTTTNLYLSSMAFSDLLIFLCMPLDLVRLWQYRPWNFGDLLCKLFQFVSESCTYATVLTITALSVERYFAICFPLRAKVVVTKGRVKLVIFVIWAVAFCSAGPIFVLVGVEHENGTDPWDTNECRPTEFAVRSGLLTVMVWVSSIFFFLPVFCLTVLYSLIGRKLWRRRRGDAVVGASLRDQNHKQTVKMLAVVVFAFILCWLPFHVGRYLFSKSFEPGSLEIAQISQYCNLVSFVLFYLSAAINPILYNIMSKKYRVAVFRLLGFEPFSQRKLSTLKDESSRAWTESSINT
Chain of UniProt O43193 (whole entry, unmodified, looked up): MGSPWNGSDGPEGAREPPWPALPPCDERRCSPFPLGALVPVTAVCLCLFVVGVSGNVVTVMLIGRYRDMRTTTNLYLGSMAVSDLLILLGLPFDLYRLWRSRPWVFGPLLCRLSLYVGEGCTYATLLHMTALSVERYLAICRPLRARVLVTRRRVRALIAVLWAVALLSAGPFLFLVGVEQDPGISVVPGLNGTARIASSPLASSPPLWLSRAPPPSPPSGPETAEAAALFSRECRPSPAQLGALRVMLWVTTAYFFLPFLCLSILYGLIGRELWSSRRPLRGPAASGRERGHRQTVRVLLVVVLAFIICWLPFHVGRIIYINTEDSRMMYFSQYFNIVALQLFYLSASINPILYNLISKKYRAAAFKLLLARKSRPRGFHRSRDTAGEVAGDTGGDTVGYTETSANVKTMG
Chain of UniProt P25103 (whole entry, looked up): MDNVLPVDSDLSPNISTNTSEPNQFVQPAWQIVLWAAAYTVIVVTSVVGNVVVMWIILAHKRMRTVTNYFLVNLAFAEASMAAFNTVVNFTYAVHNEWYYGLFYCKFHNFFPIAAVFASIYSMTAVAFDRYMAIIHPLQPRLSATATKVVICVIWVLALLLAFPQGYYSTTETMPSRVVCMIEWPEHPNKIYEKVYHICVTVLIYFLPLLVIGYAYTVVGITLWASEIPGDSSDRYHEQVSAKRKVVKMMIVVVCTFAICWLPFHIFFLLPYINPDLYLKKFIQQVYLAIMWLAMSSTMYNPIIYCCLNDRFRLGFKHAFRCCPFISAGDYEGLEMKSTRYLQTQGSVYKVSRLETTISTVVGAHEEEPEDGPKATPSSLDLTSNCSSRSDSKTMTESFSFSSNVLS

CC(C)C[C@H](NC(=O)[C@@H](Cc1c[nH]c2ccccc12)NC(=O)[C@H](Cc1ccc(O)cc1)NC(=O)[C@H](CO)NC(=O)[C@H](Cc1c[nH]c2ccccc12)NC(=O)[C@H](Cc1c[nH]cn1)NC(=O)[C@@H]1CCC(=O)N1)C(=O)N[C@@H](CCCNC(=N)N)C(=O)N1CCC[C@H]1C(=O)NCC(N)=O
Emax (GNRHR; inositol phosphate, agonist, TR-FRET; HEK-293T; 1 h): 100%

Cc1cc(C(c2ccc(Cl)cc2)c2ccc(Cl)cc2)sc1C(=O)N[C@@H](CCCN=C(N)N)C(=O)O
Emax (C3AR1; cAMP response, agonist, GloSensor cAMP; Gi signalling): 52.6 ± 2%

CC[C@H](C)[C@@H]1NC(=O)[C@H](Cc2ccccc2)NC(=O)[C@H](CCC(=O)O)NC(=O)[C@H](CCCNC(=N)N)NC(=O)CNC(=O)[C@@H](NC(=O)[C@H](CC(C)C)NC(=O)[C@H](CCCNC(=N)N)NC(=O)[C@@H](NC(=O)CNC(=O)[C@H](Cc2ccc(O)cc2)NC(=O)[C@@H]2CCCN2C(=O)[C@H](C)NC(=O)[C@H](C)NC(=O)[C@@H](N)CCCNC(=N)N)C(C)C)CSSC[C@@H]2NC(=O)[C@@H](NC(=O)[C@H](CO)NC(=O)[C@H](CO)NC(=O)[C@H](CO)NC(=O)[C@H](CC(C)C)NC(=O)CNC(=O)[C@H](C)NC(=O)[C@H](CC(C)C)NC(=O)[C@@H](NC(=O)[C@@H](N)CC(=O)O)C(C)C)CSSC[C@H](NC(=O)CNC(=O)[C@H](Cc3c[nH]c4ccccc34)NC(=O)[C@H](CCCCN)NC2=O)C(=O)N[C@@H](CO)C(=O)N[C@@H](CCCCN)C(=O)N[C@@H](CO)C(=O)N[C@@H](CCC(=O)O)C(=O)N[C@@H]([C@@H](C)CC)C(=O)N[C@@H](CO)C(=O)N[C@@H](CO)C(=O)N[C@@H](CC(C)C)C(=O)N[C@H](C(=O)O)CSSC[C@@H](C(=O)NCC(=O)NCC(=O)N[C@@H](CO)C(=O)N[C@@H](CCCNC(=N)N)C(=O)N[C@@H](Cc2c[nH]c3ccccc23)C(=O)O)NC(=O)[C@H]([C@@H](C)O)NC(=O)[C@H](Cc2ccccc2)NC(=O)[C@H]([C@@H](C)CC)NC(=O)[C@H](C(C)C)NC(=O)[C@H](C)NC(=O)[C@H](CCCNC(=N)N)NC1=O
Emax (Relaxin-3 receptor 1 (RXFP3, Homo sapiens, UniProt Q9NSD7, W138A); HEK-293T; relative to: wild type): 36.5 ± 5.72%

CCOC(=O)C(CC)(CCCSCCCCCCNc1ccc([N+](=O)[O-])c2nonc12)NC(=O)c1ccc(C2CC2)c(Cc2ccc(F)cc2)n1 (stereo not shown)
Emax (CNR2; cAMP, agonist): 100%

CCNC(=O)[C@@H]1CCCN1C(=O)[C@H](CCCNC(=N)N)NC(=O)[C@H](CC(C)C)NC(=O)[C@@H](C)NC(=O)[C@H](Cc1ccc(O)cc1)NC(=O)[C@H](CO)NC(=O)[C@H](Cc1c[nH]c2ccccc12)NC(=O)[C@H](Cc1c[nH]cn1)NC(=O)[C@@H]1CCC(=O)N1
Emax (GNRHR; inositol phosphate, agonist, TR-FRET; HEK-293T; 1 h): 100%

CC(C)C[C@H](NC(=O)[C@H](C)NC(=O)[C@H](CO)NC(=O)[C@@H]1CCCN1C(=O)[C@@H]1CCCN1C(=O)[C@H](CCC(N)=O)NC(=O)[C@H](CC(C)C)NC(=O)[C@@H](N)[C@@H](C)O)C(=O)N[C@@H](CCCNC(=N)N)C(=O)N[C@@H](CCCNC(=N)N)C(=O)N[C@@H](CCCNC(=N)N)C(=O)N[C@@H](Cc1c[nH]cn1)C(=O)N[C@@H](Cc1ccc(O)cc1)C(=O)N[C@@H](Cc1c[nH]cn1)C(=O)N[C@@H](Cc1c[nH]cn1)C(=O)N[C@@H](C)C(=O)N[C@@H](CC(C)C)C(=O)N1CCC[C@H]1C(=O)N1CCC[C@H]1C(=O)N[C@@H](CO)C(=O)N[C@@H](CCCNC(=N)N)C(=O)O
Emax (C3AR1; GoA protein dissociation, agonist, NanoBiT; relative to: TLQP-21): 45.2 ± 3.13%

CSCC[C@H](NC(=O)[C@H](CC(C)C)NC(=O)CNC(=O)[C@H](Cc1ccccc1)NC(=O)[C@H](Cc1ccccc1)NC(=O)[C@@H](N)CCC(N)=O)C(N)=O
Emax (Substance-P receptor (TACR1, Homo sapiens, UniProt P25103)): 96%

CC[C@H](C)[C@H](NC(=O)[C@@H]1CCCN1C(=O)[C@@H](NC(=O)[C@@H](N)Cc1ccccc1)C(C)C)C(=O)N[C@@H](Cc1ccccc1)C(=O)N[C@H](C(=O)N[C@@H](Cc1ccc(O)cc1)C(=O)NCC(=O)N[C@@H](CCC(=O)O)C(=O)N[C@@H](CC(C)C)C(=O)N[C@@H](CCC(N)=O)C(=O)N[C@@H](CCCNC(=N)N)C(=O)N[C@@H](CCSC)C(=O)N[C@@H](CCC(N)=O)C(=O)N[C@@H](CCC(=O)O)C(=O)N[C@@H](CCCCN)C(=O)N[C@@H](CCC(=O)O)C(=O)N[C@@H](CCCNC(=N)N)C(=O)N[C@@H](CC(N)=O)C(=O)N[C@@H](CCCCN)C(=O)NCC(=O)N[C@@H](CCC(N)=O)C(=O)O)[C@@H](C)O
Emax (Motilin receptor (MLNR, Homo sapiens, UniProt O43193, Y345A); IP1 accumulation, agonist, IP-One HTRF; AD293; 1 h, 37 °C, 7.43): 47 ± 6.9%

CCOC(=O)[C@@](CC)(CCCSCCOCCOCCN)NC(=O)c1ccc(C2CC2)c(Cc2ccc(F)cc2)n1
Emax (CNR2; cAMP, agonist): 81%

COc1ccc(C(=O)c2c(C(=O)NCCCN(C)C)oc3ccc(Cl)cc3c2=O)cc1OC
Emax (Growth hormone secretagogue receptor type 1 (GHSR, Homo sapiens, UniProt Q92847, P200A); intracellular Ca2+, agonist; HEK293T transiently transfected): 70.2 ± 9.9%

CCOC(=O)[C@](CC)(CCCSCCOCCOCCNC(=O)OC(C)(C)C)NC(=O)c1ccc(C2CC2)c(Cc2ccc(F)cc2)n1
Emax (CNR2; cAMP, agonist): 93%

CCc1cc(O)cc2c(/C=N/NC(=N)NCCc3ccc(Cl)cc3)c[nH]c12
Emax (Relaxin-3 receptor 1 (RXFP3, Homo sapiens, UniProt Q9NSD7, S163V); HEK-293T; relative to: wild type): 72.9 ± 5.48%

CCOC(=O)C(CC)(CCCSCCCCCCNC(=O)OC(C)(C)C)NC(=O)c1ccc(C2CC2)c(Cc2ccc(F)cc2)n1 (stereo not shown)
Emax (CNR2; cAMP, agonist): 85%

CC(C)C[C@H](NC(=O)[C@@H](N)[C@@H](C)O)C(=O)N[C@@H](CCC(N)=O)C(=O)N1CCC[C@H]1C(=O)N1CCC[C@H]1C(=O)N[C@@H](C)C(=O)N[C@@H](CO)C(=O)N[C@@H](CO)C(=O)N[C@@H](CCCNC(=N)N)C(=O)N[C@@H](CCCNC(=N)N)C(=O)N[C@@H](CCCNC(=N)N)C(=O)N[C@@H](Cc1c[nH]cn1)C(=O)N[C@@H](Cc1ccccc1)C(=O)N[C@@H](Cc1c[nH]cn1)C(=O)N[C@@H](Cc1c[nH]cn1)C(=O)N[C@@H](C)C(=O)N[C@@H](CC(C)C)C(=O)N1CCC[C@H]1C(=O)N1CCC[C@H]1C(=O)N[C@@H](C)C(=O)N[C@@H](CCCNC(=N)N)C(=O)O
Emax (C3AR1; GoA protein dissociation, agonist, NanoBiT; relative to: TLQP-21): 45.4 ± 1.83%

CCOC(=O)[C@](CC)(CCCSCCOCCOCCNC(=O)CCCCCN1C(=CC=CC=CC2=[N+](C)c3ccc4ccccc4c3C2(C)C)C(C)(C)c2c1ccc1ccccc21)NC(=O)c1ccc(C2CC2)c(Cc2ccc(F)cc2)n1.[Cl-]
Emax (CNR2; cAMP, agonist): 110%

COc1cc(C2C(NC(=O)c3ccc(NC(=O)OC(C)(C)C)cc3)(C(=O)O)C(c3ccc(OC(=O)c4cccs4)c(OC)c3)C2(NC(=O)c2ccc(NC(=O)OC(C)(C)C)cc2)C(=O)O)ccc1OC(=O)c1cccs1 (stereo not shown)
Emax (Glucagon-like peptide 1 receptor (GLP1R, Homo sapiens, UniProt P43220, W33A); cAMP accumulation, agonist; receptor mutant; relative to: wild type): 68 ± 7.52%

Excerpt of the above:
CCOC(=O)C(CC)(CCCSCCCCCCNc1ccc([N+](=O)[O-])c2nonc12)NC(=O)c1ccc(C2CC2)c(Cc2ccc(F)cc2)n1 (stereo not shown)
Emax (CNR2; cAMP, agonist): 100%

CCNC(=O)[C@@H]1CCCN1C(=O)[C@H](CCCNC(=N)N)NC(=O)[C@H](CC(C)C)NC(=O)[C@@H](C)NC(=O)[C@H](Cc1ccc(O)cc1)NC(=O)[C@H](CO)NC(=O)[C@H](Cc1c[nH]c2ccccc12)NC(=O)[C@H](Cc1c[nH]cn1)NC(=O)[C@@H]1CCC(=O)N1
Emax (GNRHR; inositol phosphate, agonist, TR-FRET; HEK-293T; 1 h): 100%
